Measured values of several laboratories.
Several values in a cell are separate wells, animals, samples, runs or records. Numbers after ± are the reported error.

SMILES | assay | test system | conditions | how to read | endpoint | result
CC(C)[C@@H]1NC(=O)CNC(=O)[C@H](CC(N)=O)NC(=O)[C@H](CCCNC(=N)N)NC(=O)[C@H](Cc2ccc(O)cc2)NC(=O)[C@H](C(C)C)NC(=O)[C@@H](NC(=O)[C@@H](NC(=O)[C@H](CC(N)=O)NC(=O)[C@H](Cc2c[nH]c3ccccc23)NC(=O)[C@H](C)NC(=O)[C@H](Cc2ccccc2)NC(=O)CNC(=O)[C@H](CCCCN)NC(=O)[C@H](Cc2ccccc2)NC(=O)[C@H](Cc2ccccc2)NC(=O)[C@H](CCCCN)NC(=O)OCC2c3ccccc3-c3ccccc32)C(C)C)CSSC[C@@H](C(=O)N[C@@H](Cc2c[nH]cn2)C(=O)N[C@@H](CCCNC(=N)N)C(=O)N[C@@H](CCCNC(=N)N)C(=O)N[C@@H](C)C(=O)N[C@@H](CC(N)=O)C(N)=O)NC(=O)[C@H](C(C)C)NC(=O)[C@H](CCCNC(=N)N)NC1=O | – | ICR mice, serum | intraperitoneal, 5 mg/kg, day 5 | – | albumin | 34.8 ± 1.12 g/L
C=Cc1c(C)c2cc3nc(c(CC(=O)[O-])c4[n-]c(cc5nc(cc1[n-]2)C(C)=C5CC)c(C)c4C(=O)[O-])C(CCC(=O)[O-])C3C.[Cu+2].[Na+].[Na+].[Na+] (stereo not drawn) | – | Wistar rat, female | oral, 1000 mg/kg daily, 28 days | – | haemoglobin | 14.6 ± 1.02 g/dL
CSCC[C@H](N)C(=O)N[C@@H](C)C(=O)N[C@@H](CCCNC(=N)N)C(=O)N[C@@H](CCCNC(=N)N)C(=O)N[C@@H](CC(=O)O)C(=O)N[C@@H](CCCCN)C(=O)N[C@H](C(=O)N[C@@H](CC(=O)O)C(=O)N[C@@H](Cc1ccccc1)C(=O)N[C@@H](C)C(=O)N[C@@H](CCCNC(=N)N)C(=O)N[C@@H](CCCNC(=N)N)C(=O)N[C@@H](CCCNC(=N)N)C(=O)N[C@@H](CCCNC(=N)N)C(=O)NCCCCCC(=O)NCCCCC(NC(=O)CCCCCNC(=O)[C@H](CCCNC(=N)N)NC(=O)[C@H](CCCNC(=N)N)NC(=O)[C@H](CCCNC(=N)N)NC(=O)[C@H](CCCNC(=N)N)NC(=O)[C@H](C)NC(=O)[C@H](Cc1ccccc1)NC(=O)[C@H](CC(=O)O)NC(=O)[C@@H](NC(=O)[C@H](CCCCN)NC(=O)[C@H](CC(=O)O)NC(=O)[C@H](CCCNC(=N)N)NC(=O)[C@H](CCCNC(=N)N)NC(=O)[C@H](C)NC(=O)[C@@H](N)CCSC)[C@@H](C)O)C(=O)NCCCCC(NC(=O)C(CCCCNC(=O)CCCCCNC(=O)[C@H](CCCNC(=N)N)NC(=O)[C@H](CCCNC(=N)N)NC(=O)[C@H](CCCNC(=N)N)NC(=O)[C@H](CCCNC(=N)N)NC(=O)[C@H](C)NC(=O)[C@H](Cc1ccccc1)NC(=O)[C@H](CC(=O)O)NC(=O)[C@@H](NC(=O)[C@H](CCCCN)NC(=O)[C@H](CC(=O)O)NC(=O)[C@H](CCCNC(=N)N)NC(=O)[C@H](CCCNC(=N)N)NC(=O)[C@H](C)NC(=O)[C@@H](N)CCSC)[C@@H](C)O)NC(=O)CCCCCNC(=O)[C@H](CCCNC(=N)N)NC(=O)[C@H](CCCNC(=N)N)NC(=O)[C@H](CCCNC(=N)N)NC(=O)[C@H](CCCNC(=N)N)NC(=O)[C@H](C)NC(=O)[C@H](Cc1ccccc1)NC(=O)[C@H](CC(=O)O)NC(=O)[C@@H](NC(=O)[C@H](CCCCN)NC(=O)[C@H](CC(=O)O)NC(=O)[C@H](CCCNC(=N)N)NC(=O)[C@H](CCCNC(=N)N)NC(=O)[C@H](C)NC(=O)[C@@H](N)CCSC)[C@@H](C)O)C(N)=O)[C@@H](C)O (stereo partly drawn) | – | C57BL/6 mouse female, spine | dose not given, 6 h | baseline: total | mean tissue distribution | 5.5%
CC(C)=CCC/C(C)=C\CCn1cc(CC(P(=O)(O)O)P(=O)(O)O)nn1 | equilibrium dialysis | mouse plasma | 10 µg/mL, 4 h | – | fraction unbound | 0.056
CC(=O)N[C@H](C(=O)N[C@@H](CCCC(=O)OC(C)(C)C)C(=O)N[C@@H](CCC1CCCCC1)C(=O)N[C@@H](CC(=O)O)C(=O)COC(=O)c1c(C)cccc1C)C(C)(C)C | – | C57BL/6N mouse, female, whole blood | intraperitoneal, dose not given, 0.08 h | – | blood concentration | 297 µM
O=C1NC2(CC2)COc2ncc(F)cc2[C@H]2COCCN2c2ccn3ncc1c3n2 | – | Sprague-Dawley rats, female, blood | oral, 2.5 mg/kg/day, end of recovery, 4-week subacute toxicity | – | eosinophil percentage | 1.74 ± 0.42%
CC(C)C[C@@H](NC(=O)[C@@H](CCCNC(=N)N)NC(=O)[C@@H](Cc1c[nH]cn1)NC(=O)[C@@H](Cc1c[nH]c2ccccc12)NC(=O)[C@@H](Cc1c[nH]cn1)NC(=O)[C@@H](Cc1ccccc1)NC(=O)[C@H](NC(=O)[C@@H](Cc1ccc(O)cc1)NC(=O)CNC(=O)CNC(=O)CCOCCOCCOCCNC(=O)CN1CCN(CC(=O)O)CCN(CC(=O)O)CC1)[C@H](C)O)C(=O)N[C@H](CC(N)=O)C(=O)N1CCC[C@@H]1C(=O)O [gallium-68 labelled] | – | human female, from C57BL/6 mouse, osteogenic cells | – | – | absorbed dose | 0.0182 ± 5.55e-05 mSv/MBq
CC[C@H](C)[C@H](NC(=O)[C@H](CCCCN)NC(=O)CNC(=O)[C@H](CC(C)C)NC(=O)[C@H](Cc1ccccc1)NC(=O)[C@H](CCCCN)NC(=O)[C@H](CO)NC(=O)[C@H](Cc1ccccc1)NC(=O)[C@H](Cc1c[nH]c2ccccc12)NC(=O)[C@H](CCC(N)=O)NC(=O)[C@@H](NC(=O)[C@H](Cc1ccccc1)NC(=O)CCCCCNC(=O)CN1CCN(CC(=O)O)CCN(CC(=O)O)CCN(CC(=O)O)CC1)C(C)C)C(=O)N[C@@H](CCC(=O)O)C(=O)N1CCC[C@H]1C(=O)N[C@@H](CC(=O)O)C(=O)N[C@H](C(=O)N[C@@H](CO)C(=O)N[C@@H](CCC(N)=O)C(=O)N[C@H](C(=O)N[C@@H](CCC(N)=O)C(=O)N[C@@H](CC(=O)O)C(=O)N1CCC[C@H]1C(=O)N[C@@H](CC(N)=O)C(=O)N[C@@H](CC(=O)O)C(=O)N[C@@H](CCC(N)=O)C(=O)N[C@@H](Cc1ccc(O)cc1)C(=O)N[C@@H](CCC(=O)O)C(=O)N1CCC[C@H]1C(=O)N[C@@H](Cc1ccccc1)C(=O)O)C(C)C)C(C)C [copper-64 labelled] | – | BALB/c mice, male, CT26 tumour-bearing, small intestine | 2 h, anti-PD1 plus anti-CTLA4 treated | – | tissue uptake | 4.28 ± 1.3 %ID/g
C=Cc1c(C)c2cc3nc(c(CC(=O)O)c4[nH]c(cc5nc(cc1[nH]2)C(C)=C5CC)c(C)c4C(=O)O)[C@@H](CCC(=O)NCCCC[C@H](NC(C)=O)C(=O)N[C@@H](Cc1ccccc1)C(=O)N[C@@H](Cc1ccccc1)C(=O)N[C@H](C(=O)N[C@@H](CC(C)C)C(=O)N[C@@H](CCCCN)C(=O)N[C@@H](CO)C(=O)NCC(=O)N[C@@H](CCC(N)=O)C(=O)N[C@@H](Cc1ccc(O)cc1)C(=O)N[C@@H](C)C(=O)N[C@@H](CO)C(=O)N[C@@H](Cc1ccc(O)cc1)C(=O)N[C@@H](Cc1c[nH]cn1)C(=O)N[C@@H](CS)C(=O)N[C@@H](Cc1c[nH]c2ccccc12)C(=O)N[C@@H](CS)C(=O)N[C@@H](Cc1c[nH]c2ccccc12)C(=O)N[C@@H](CCCNC(=N)N)C(=O)N[C@@H](CC(=O)O)C(=O)N1CCC[C@H]1C(=O)NCC(=O)N[C@@H](CCCNC(=N)N)C(=O)N[C@@H](CO)C(=O)NCC(=O)NCC(=O)N[C@@H](CO)C(=O)N[C@@H](CCCCN)C(N)=O)C(C)C)[C@@H]3C | – | mouse, blood | 0 h | – | blood concentration | 171 µg/mL and 175 µg/mL
O=C(c1cc(Cc2n[nH]c(=O)c3ccccc23)ccc1F)N1CC(CNC2CC2)C1 | – | Wistar Han rat, female, blood | oral, 30 mg/kg daily, 4 weeks | – | haemoglobin | 13.1 ± 1.1 g/dL
COc1ccc([C@@H]2CC(=O)c3c(O)cc(O[C@@H]4O[C@H](CO)[C@@H](O)[C@H](O)[C@H]4O[C@@H]4O[C@@H](C)[C@H](O)[C@@H](O)[C@H]4O)cc3O2)cc1O | – | Sprague-Dawley rat, male, lean, faeces | oral, 100 mg/kg, 0-12 h | – | faecal excretion | 581 ± 271 ng
CCCCCCCCCCCCCCCC(=O)N[C@@H](CCC(=O)NCCOCCOCCC(=O)NCCOCCOCCC(=O)NCCCC[C@H](NC(=O)[C@H](CC(=O)O)NC(=O)[C@H](CC(C)C)NC(=O)[C@H](Cc1ccc(O)cc1)NC(=O)[C@H](CCCCN)NC(=O)[C@H](CO)NC(=O)[C@H](Cc1ccc(O)cc1)NC(=O)[C@H](CC(=O)O)NC(=O)[C@H](CO)NC(=O)[C@@H](NC(=O)[C@H](Cc1ccccc1)NC(=O)[C@@H](NC(=O)CNC(=O)[C@H](CCC(N)=O)NC(=O)[C@@H](CO)NC(=O)[C@@H](N)Cc1c[nH]cn1)[C@@H](C)O)[C@@H](C)O)C(=O)N[C@@H](CCCNC(=N)N)C(=O)N[C@@H](CCCNC(=N)N)C(=O)N[C@@H](C)C(=O)N[C@@H](CCC(N)=O)C(=O)N[C@@H](CC(=O)O)C(=O)N[C@@H](Cc1ccccc1)C(=O)N[C@H](C(=O)N[C@@H](CCC(N)=O)C(=O)N[C@@H](Cc1c[nH]c2ccccc12)C(=O)N[C@@H](CC(C)C)C(=O)N[C@@H](CC(C)C)C(=O)N[C@@H](CC(N)=O)C(=O)N[C@H](C(=O)NCC(=O)NCC(=O)N1CCC[C@H]1C(=O)N[C@@H](CO)C(=O)N[C@@H](CO)C(=O)NCC(=O)N[C@@H](C)C(=O)N1CCC[C@H]1C(=O)N1CCC[C@H]1C(=O)N1CCC[C@H]1C(=O)N[C@@H](CO)C(N)=O)[C@@H](C)O)C(C)C)C(=O)O | – | rhesus monkey, male | subcutaneous, 300 µg/kg once daily, 28 days | – | total bilirubin | 9.4 ± 6 µmol/L

Excerpt of the above:
SMILES | assay | test system | conditions | how to read | endpoint | result
C=Cc1c(C)c2cc3nc(c(CC(=O)O)c4[nH]c(cc5nc(cc1[nH]2)C(C)=C5CC)c(C)c4C(=O)O)[C@@H](CCC(=O)NCCCC[C@H](NC(C)=O)C(=O)N[C@@H](Cc1ccccc1)C(=O)N[C@@H](Cc1ccccc1)C(=O)N[C@H](C(=O)N[C@@H](CC(C)C)C(=O)N[C@@H](CCCCN)C(=O)N[C@@H](CO)C(=O)NCC(=O)N[C@@H](CCC(N)=O)C(=O)N[C@@H](Cc1ccc(O)cc1)C(=O)N[C@@H](C)C(=O)N[C@@H](CO)C(=O)N[C@@H](Cc1ccc(O)cc1)C(=O)N[C@@H](Cc1c[nH]cn1)C(=O)N[C@@H](CS)C(=O)N[C@@H](Cc1c[nH]c2ccccc12)C(=O)N[C@@H](CS)C(=O)N[C@@H](Cc1c[nH]c2ccccc12)C(=O)N[C@@H](CCCNC(=N)N)C(=O)N[C@@H](CC(=O)O)C(=O)N1CCC[C@H]1C(=O)NCC(=O)N[C@@H](CCCNC(=N)N)C(=O)N[C@@H](CO)C(=O)NCC(=O)NCC(=O)N[C@@H](CO)C(=O)N[C@@H](CCCCN)C(N)=O)C(C)C)[C@@H]3C | – | mouse, blood | 0 h | – | blood concentration | 171 µg/mL and 175 µg/mL
O=C(c1cc(Cc2n[nH]c(=O)c3ccccc23)ccc1F)N1CC(CNC2CC2)C1 | – | Wistar Han rat, female, blood | oral, 30 mg/kg daily, 4 weeks | – | haemoglobin | 13.1 ± 1.1 g/dL
